Results collected from several papers.
Each numbered part is a random draw from the data of one study; scales do not carry over between parts. Changes are numbered by the printed parent chain.

Block 1
Target: CCND2, cyclin fold, Cln2 fusion (human)
Method: yeast growth competition, sequencing
Matrix: yeast
Notes: weak parent motif
Relative to: not given
Reading: higher = stronger binding
Starting sequence: MASTL docking peptide (human); PMIAKNLMCELDE
`PMIAKNLMIELDE [C9I]`: “normalised enrichment score” -0.172.
Under “normalised enrichment score”, `PMIAKNLACELDE [M8A]` is recorded as -0.232.
For `PCIAKNLMCELDE [M2C]`, “normalised enrichment score” read 0.155.
`PMIAKHLMCELDE [N6H]` — result for “normalised enrichment score”: -0.2.
For `PMIAKNHMCELDE [L7H]`, “normalised enrichment score” read -0.921.
`PMIAKNCMCELDE [L7C]`: “normalised enrichment score” 0.266.
Under “normalised enrichment score”, `PMIAKNLMCESDE [L11S]` is recorded as 0.346.
`PMIAKNLMCEADE [L11A]` — result for “normalised enrichment score”: 0.0374.
Under “normalised enrichment score”, `PMIAKNLMEELDE [C9E]` is recorded as -0.0648.
For `PMIAKNLMHELDE [C9H]`, “normalised enrichment score” read -0.158.
Under “normalised enrichment score”, `PMIAKNLMCKLDE [E10K]` is recorded as 0.299.
`PMIAKNLGCELDE [M8G]` — result for “normalised enrichment score”: -0.00788.
`PMIAKNLRCELDE [M8R]` — result for “normalised enrichment score”: 0.168.
Under “normalised enrichment score”, `PMIAKNLMWELDE [C9W]` is recorded as -0.321.
`PMIAKNLMCEEDE [L11E]` — result for “normalised enrichment score”: 0.368.
`PMIAKNLMCELVE [D12V]` — result for “normalised enrichment score”: 0.0455.
`PMIAKNLMCWLDE [E10W]` — result for “normalised enrichment score”: 0.0929.

Block 2
Target: ABI1, truncated, D143A, DHFR fusion (Arabidopsis thaliana, UniProt P49597)
Method: DHFR PCA, dose-response
Matrix: yeast
Notes: Hill fit, mean, not affinity
With: (+)-ABA, dose series
Reading: lower = more sensitive
Starting sequence: PYL1, truncated, DHFR fusion (Arabidopsis thaliana, UniProt Q8VZS8); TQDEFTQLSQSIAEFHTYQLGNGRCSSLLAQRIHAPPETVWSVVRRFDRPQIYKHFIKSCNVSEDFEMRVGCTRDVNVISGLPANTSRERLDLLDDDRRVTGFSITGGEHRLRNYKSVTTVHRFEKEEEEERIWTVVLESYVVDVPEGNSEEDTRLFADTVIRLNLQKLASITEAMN
The ABA EC50 of `R90Q` is reported as 5.29 µM.
The ABA EC50 of `R49G` is reported as 45.3 µM.
For `T17R`, the ABA EC50 was 9.44 µM.
The ABA EC50 of `D65H` is reported as 2.65 µM.
`E127S` gave an ABA EC50 of 2.13 µM.
With `G23D` the ABA EC50 was 3.36 µM.
`V76H` has an ABA EC50 of 677 µM.
The ABA EC50 of `Q10W` is reported as 8.75 µM.
With `S63M` the ABA EC50 was 3.98 µM.
For `R90M`, the ABA EC50 was 12.1 µM.
`I133C` gave an ABA EC50 of 1.83 µM.
The ABA EC50 of `S63V` is reported as 3.5 µM.
`A175M` has an ABA EC50 of 2.18 µM.
`V100Y` has an ABA EC50 of 96.7 µM.

Block 3
Target: Histone acetyltransferase KAT6A, winged helix 1, GST fusion (KAT6A, Homo sapiens, UniProt Q92794, residues 1-85)
Method: protein binding microarray
Form: double-stranded DNA, one strand shown
Matrix: in vitro
Tested at: not given
Notes: 8-mer, flanks averaged, mean of 2 arrays, mostly near background
Relative to: not given
Reading: higher = stronger binding
Target sequence (chain): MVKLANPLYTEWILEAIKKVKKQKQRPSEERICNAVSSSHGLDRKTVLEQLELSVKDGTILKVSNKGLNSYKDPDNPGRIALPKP
`AATTATAT` gave an E-score of -0.0321.
The E-score of `GAAGGCAC` is reported as 0.00562.
`CAGTCGGG` has an E-score of 0.0868.
`ACTTTTAA` gave an E-score of 0.0159.
With `GACGGGAC` the E-score was 0.395.
For `AGAGCTAA`, the E-score was -0.241.
`GGGAGCGA` has an E-score of -0.126.
`GCTATCAC` has an E-score of -0.00033.
For `GTTACCTA`, the E-score was -0.165.
With `TCCTACCA` the E-score was -0.102.
With `AGTGCAAA` the E-score was -0.264.
The E-score of `AGTTATTC` is reported as -0.0767.
`GCGTGTTA` gave an E-score of 0.126.
For `CCACTTAA`, the E-score was -0.202.
`AAGAAAAT` gave an E-score of -0.165.
`AGCAAGCA` has an E-score of -0.152.
With `ATCGTGGG` the E-score was -0.085.

Block 4
Target: UBE2Q1 UBC core domain (UniProt Q7Z7E8)
Method: yeast two-hybrid
Matrix: yeast
Notes: mostly zero background
Relative to: not given
Reading: higher = stronger interaction
B1: TRIM43 RING domain (UniProt Q96BQ3); chain FSHAFQKELTCVICLNYLVDPVTICCGHSFCRPCLCLSWEEAQSPANCPACREPSPKMDFKT
B2: TRIM5 RING domain (UniProt Q9C035); chain LREVKLSPEGQKVDHCARHGEKLLLFCQEDGKVICWLCERSQEHRGHHTFLTEEVAREYQVKL
B3: TRIML1 RING domain (UniProt Q8N9V2); chain LMENLREELTCFICLDYFSSPVTTECGHSFCLVCLLRSWEEHNTPLSCPECWRTLEGPHFQS
B4: TRIM40 RING domain (UniProt Q6P9F5); chain LQKDNQEEGVCPICQESLKEAVSTNCGHLFCRVCLTQHVEKASASGVFCCPLCRKPCSEEVLG
Target sequence (chain): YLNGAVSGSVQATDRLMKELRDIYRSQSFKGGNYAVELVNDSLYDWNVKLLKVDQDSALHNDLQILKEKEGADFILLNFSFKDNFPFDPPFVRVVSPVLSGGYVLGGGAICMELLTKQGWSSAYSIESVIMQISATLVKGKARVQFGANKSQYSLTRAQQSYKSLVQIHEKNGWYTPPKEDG
Under “lacZ reporter activity”, `B1 (TRIM43 RING domain)` is recorded as 0.
Under “lacZ reporter activity”, `B2 (TRIM5 RING domain)` is recorded as 0.
For `B3 (TRIML1 RING domain)`, “lacZ reporter activity” read 0.
`GAAPGPEAAECLVCSELALLVLFSPCQHRTVCEECARRMKKCIRCQVVVSKKLRPD (MIB2 RING domain (UniProt Q96AX9))` — result for “lacZ reporter activity”: 0.
`VEPSEENSKDCVVCQNGTVNWVLLPCRHTCLCDGCVKYFQQCPMCRQFVQESFALC (CGRRF1 RING domain (UniProt Q99675))` — result for “lacZ reporter activity”: 0.
`B4 (TRIM40 RING domain)` — result for “lacZ reporter activity”: 0.
`FQGDVDEDLICPICSGVLEEPVQAPHCEHAFCNACITQWFSQQQTCPVDRSVVTVAHLRP (RNF41 RING domain (UniProt Q9H4P4))`: “lacZ reporter activity” 0.

Repeated from above (block 1):
Under “normalised enrichment score”, `PMIAKNLMEELDE [C9E]` is recorded as -0.0648.
For `PMIAKNLMHELDE [C9H]`, “normalised enrichment score” read -0.158.
Under “normalised enrichment score”, `PMIAKNLMCKLDE [E10K]` is recorded as 0.299.
`PMIAKNLGCELDE [M8G]` — result for “normalised enrichment score”: -0.00788.
`PMIAKNLRCELDE [M8R]` — result for “normalised enrichment score”: 0.168.
Under “normalised enrichment score”, `PMIAKNLMWELDE [C9W]` is recorded as -0.321.
`PMIAKNLMCEEDE [L11E]` — result for “normalised enrichment score”: 0.368.
